Assay results gathered from unrelated publications.
Protocols differ between the studies behind these lines. Several values in a cell are separate wells, animals, samples, runs or records. ± marks the error that the study gave.
Chain of UniProt Q96RJ0 (whole entry, looked up): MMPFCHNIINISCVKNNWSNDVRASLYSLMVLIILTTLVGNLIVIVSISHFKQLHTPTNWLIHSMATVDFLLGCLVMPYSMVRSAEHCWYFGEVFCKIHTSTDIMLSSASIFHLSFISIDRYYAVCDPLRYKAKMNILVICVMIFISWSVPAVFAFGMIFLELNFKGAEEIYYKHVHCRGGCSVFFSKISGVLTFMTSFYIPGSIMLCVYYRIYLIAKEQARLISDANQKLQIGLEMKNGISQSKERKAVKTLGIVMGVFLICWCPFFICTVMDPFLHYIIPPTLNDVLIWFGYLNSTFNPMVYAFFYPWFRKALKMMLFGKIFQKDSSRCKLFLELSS
Chain of UniProt O43148 (whole entry, looked up): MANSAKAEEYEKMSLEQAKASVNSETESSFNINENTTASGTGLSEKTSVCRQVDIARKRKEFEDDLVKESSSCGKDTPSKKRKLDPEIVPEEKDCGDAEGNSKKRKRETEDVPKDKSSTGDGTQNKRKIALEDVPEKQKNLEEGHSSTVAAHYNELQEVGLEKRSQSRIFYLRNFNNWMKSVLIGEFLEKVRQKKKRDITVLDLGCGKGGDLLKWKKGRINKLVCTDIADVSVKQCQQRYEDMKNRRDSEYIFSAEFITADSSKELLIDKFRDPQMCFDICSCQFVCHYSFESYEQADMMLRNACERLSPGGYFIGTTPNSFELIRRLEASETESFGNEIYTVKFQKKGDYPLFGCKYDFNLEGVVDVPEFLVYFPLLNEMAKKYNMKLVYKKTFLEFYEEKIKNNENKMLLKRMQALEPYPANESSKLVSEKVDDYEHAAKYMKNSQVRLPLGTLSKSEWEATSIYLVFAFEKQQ
Chain of UniProt P05804 (whole entry, looked up): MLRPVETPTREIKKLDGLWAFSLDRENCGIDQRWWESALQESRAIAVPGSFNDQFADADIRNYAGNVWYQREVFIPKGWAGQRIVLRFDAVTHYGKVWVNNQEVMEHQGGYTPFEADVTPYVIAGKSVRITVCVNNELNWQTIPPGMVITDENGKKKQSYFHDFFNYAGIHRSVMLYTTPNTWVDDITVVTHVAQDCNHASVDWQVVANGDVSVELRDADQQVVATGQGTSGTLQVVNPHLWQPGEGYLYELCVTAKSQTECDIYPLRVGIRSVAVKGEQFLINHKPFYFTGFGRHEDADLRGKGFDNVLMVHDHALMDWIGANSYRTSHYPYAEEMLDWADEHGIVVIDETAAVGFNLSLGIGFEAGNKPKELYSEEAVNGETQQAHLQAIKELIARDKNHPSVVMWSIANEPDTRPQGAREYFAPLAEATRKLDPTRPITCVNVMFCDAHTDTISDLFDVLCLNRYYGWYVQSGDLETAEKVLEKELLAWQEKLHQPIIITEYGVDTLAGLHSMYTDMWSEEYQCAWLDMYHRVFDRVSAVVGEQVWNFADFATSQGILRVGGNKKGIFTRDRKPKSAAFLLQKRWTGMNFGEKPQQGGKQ
Chain of UniProt P20231 (whole entry, looked up): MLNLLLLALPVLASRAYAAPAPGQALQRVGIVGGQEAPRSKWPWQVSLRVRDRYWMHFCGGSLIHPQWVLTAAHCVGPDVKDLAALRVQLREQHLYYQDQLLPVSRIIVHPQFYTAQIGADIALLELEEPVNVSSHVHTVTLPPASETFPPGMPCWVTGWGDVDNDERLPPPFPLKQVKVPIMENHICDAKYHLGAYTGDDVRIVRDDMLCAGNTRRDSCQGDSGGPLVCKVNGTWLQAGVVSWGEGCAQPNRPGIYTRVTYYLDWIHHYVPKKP
Chain of UniProt Q8WTS6 (whole entry, looked up): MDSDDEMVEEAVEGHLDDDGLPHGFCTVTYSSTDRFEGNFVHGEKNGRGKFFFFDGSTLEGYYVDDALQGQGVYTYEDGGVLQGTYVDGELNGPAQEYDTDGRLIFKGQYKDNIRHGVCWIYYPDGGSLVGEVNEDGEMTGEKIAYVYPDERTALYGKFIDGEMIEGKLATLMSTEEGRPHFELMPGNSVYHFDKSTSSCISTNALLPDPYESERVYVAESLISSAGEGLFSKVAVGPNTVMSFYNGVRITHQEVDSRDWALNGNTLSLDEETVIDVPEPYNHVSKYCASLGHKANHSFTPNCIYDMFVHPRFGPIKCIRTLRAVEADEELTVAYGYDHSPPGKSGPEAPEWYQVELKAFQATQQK
Chain of UniProt P28065 (whole entry, looked up): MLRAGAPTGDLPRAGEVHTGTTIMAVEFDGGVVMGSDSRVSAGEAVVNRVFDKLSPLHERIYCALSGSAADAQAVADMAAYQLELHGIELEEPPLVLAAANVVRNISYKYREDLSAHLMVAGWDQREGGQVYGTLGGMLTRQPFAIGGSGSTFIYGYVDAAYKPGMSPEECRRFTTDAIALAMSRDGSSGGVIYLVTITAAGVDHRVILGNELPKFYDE
Chain of UniProt O43353 (whole entry, looked up): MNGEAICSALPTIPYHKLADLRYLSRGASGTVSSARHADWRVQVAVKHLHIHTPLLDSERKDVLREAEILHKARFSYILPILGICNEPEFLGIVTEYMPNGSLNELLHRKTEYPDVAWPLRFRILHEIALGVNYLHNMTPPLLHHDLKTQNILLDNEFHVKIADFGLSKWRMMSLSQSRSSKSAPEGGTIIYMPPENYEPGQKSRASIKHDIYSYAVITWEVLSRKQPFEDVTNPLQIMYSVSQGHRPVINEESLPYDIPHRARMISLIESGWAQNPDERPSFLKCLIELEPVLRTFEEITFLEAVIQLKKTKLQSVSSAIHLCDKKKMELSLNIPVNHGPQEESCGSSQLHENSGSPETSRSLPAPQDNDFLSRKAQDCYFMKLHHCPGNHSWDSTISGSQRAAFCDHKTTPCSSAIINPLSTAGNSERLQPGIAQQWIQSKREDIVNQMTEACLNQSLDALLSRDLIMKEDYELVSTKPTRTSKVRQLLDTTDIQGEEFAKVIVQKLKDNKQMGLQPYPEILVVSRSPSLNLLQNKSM
Chain of UniProt Q9NY46 (whole entry, looked up): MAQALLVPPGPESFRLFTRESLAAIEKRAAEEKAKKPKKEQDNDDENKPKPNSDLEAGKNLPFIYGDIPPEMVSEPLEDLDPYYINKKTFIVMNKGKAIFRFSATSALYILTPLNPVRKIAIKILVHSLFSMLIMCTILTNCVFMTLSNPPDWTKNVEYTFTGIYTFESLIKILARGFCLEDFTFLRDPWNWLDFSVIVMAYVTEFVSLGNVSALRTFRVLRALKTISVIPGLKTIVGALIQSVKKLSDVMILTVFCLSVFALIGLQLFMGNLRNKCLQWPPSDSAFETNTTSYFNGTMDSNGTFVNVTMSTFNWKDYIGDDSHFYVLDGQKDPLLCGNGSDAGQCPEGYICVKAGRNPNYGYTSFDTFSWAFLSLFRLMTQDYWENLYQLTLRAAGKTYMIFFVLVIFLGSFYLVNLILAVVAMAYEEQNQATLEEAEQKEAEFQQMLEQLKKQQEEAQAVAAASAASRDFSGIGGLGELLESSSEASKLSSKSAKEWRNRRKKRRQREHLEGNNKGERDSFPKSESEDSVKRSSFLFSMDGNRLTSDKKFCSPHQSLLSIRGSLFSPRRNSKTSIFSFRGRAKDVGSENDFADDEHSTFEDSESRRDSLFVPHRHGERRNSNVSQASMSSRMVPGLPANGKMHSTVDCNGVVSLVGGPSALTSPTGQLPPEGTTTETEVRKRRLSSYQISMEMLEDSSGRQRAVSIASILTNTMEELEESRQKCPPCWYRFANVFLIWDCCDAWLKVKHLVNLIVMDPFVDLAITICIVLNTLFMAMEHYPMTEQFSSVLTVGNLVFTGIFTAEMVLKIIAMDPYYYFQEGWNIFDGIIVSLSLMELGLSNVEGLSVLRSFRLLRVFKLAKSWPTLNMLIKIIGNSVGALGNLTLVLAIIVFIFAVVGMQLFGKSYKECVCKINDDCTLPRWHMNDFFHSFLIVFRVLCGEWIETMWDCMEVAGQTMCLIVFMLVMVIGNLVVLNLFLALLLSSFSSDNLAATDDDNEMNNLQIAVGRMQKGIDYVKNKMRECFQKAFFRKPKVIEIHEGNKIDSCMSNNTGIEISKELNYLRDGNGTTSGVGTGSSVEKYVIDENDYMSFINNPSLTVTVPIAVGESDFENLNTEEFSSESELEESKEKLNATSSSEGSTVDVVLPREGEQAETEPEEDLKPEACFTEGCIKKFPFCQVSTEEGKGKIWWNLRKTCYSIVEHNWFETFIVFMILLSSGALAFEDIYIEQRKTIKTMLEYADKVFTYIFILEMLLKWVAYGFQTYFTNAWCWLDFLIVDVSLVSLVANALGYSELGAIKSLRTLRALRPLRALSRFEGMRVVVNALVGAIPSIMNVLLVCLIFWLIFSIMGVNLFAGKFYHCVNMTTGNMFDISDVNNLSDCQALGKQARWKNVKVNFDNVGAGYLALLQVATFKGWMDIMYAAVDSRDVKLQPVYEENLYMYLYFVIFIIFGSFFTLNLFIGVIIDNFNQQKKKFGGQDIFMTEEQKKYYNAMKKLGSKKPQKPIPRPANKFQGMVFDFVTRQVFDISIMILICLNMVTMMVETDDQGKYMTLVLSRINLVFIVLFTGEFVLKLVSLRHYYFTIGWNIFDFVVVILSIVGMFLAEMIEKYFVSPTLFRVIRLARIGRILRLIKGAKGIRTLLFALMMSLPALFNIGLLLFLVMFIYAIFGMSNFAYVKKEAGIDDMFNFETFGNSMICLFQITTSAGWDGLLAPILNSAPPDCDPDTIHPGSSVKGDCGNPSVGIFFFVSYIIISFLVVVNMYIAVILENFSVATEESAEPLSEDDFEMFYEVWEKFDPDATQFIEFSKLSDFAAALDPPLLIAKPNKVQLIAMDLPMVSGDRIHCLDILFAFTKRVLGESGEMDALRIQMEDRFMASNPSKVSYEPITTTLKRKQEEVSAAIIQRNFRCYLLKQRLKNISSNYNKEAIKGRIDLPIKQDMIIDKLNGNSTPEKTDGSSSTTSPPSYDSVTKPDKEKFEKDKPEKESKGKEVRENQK

CN=c1nc(-c2ccccc2)n(-c2ccccc2)s1 — IC50 (mRNA cap guanine-N(7) methyltransferase, with RAM (RNMT, Homo sapiens, UniProt O43148); N7-methyltransferase activity, inhibitor, Py-FLINT; RNMT-RAM complex, with: SAM 20 µM): 16000 ± 3300 nM
Cc1cc(S(=O)(=O)Nc2ncccn2)c(F)cc1N(C)C1CCN([C@H](C)c2ccccc2)CC1 — IC50 (SCN3A (Homo sapiens, UniProt Q9NY46); sodium current, inhibitor, automated patch clamp; inactivated state protocol): 167000 nM
CC(C)[C@H](NC(=O)N[C@H](C(=O)N[C@H]1/C=C/CCNC(=O)/C=C/[C@H](C(C)C)NC1=O)C(C)C)C(=O)O — IC50 (Proteasome subunit beta type-9 (Homo sapiens, UniProt P28065); inhibitor; human immunoproteasome, with: Ac-PAL-AMC): 760 nM
C/C=C1/CN2CCc3c([nH]c4ccccc34)[C@@H]2C[C@@H]1/C(=C\OC)C(=O)OC — IC50 (HTR7 (Homo sapiens, UniProt P34969); cAMP, antagonist): 6000 nM
CCC(C)SSc1ncc[nH]1 (centres unmarked) — IC50 (Genome polyprotein, 3C protease (Human enterovirus 71, UniProt B9VUU3); protease activity, inhibitor, FRET; Enterovirus A71; DTT 4 mM): > 60000 nM
CC(C)[C@H](NC(=O)c1ccc(CNc2nc3c(c(=O)[nH]2)CCC3)cc1)C(=O)NC1CNC1 — IC50 (Collagenase 3 (MMP13, Homo sapiens, UniProt P45452); enzyme activity, inhibitor; TFA salt, with: fTHP-15(FAM) substrate): 28 nM
N#Cc1c(C(F)(F)F)cc(-c2ccc(Cl)cc2)nc1SCC(=O)Nc1ccccn1 — IC50 (TAAR1 (Homo sapiens, UniProt Q96RJ0)): < 500 nM and 421 nM
C1=C(c2cc3c(Nc4ccc5scnc5c4)ncnc3s2)CCNC1 — IC50 (RIPK2 (Homo sapiens, UniProt O43353); enzyme activity, inhibitor): 6 nM
C1CCc2c(c(N3CCNCC3)nc3sc4c(N5CCNCC5)nnnc4c23)C1 — IC50 (Beta-glucuronidase (uidA, Escherichia coli, UniProt P05804); enzyme activity, inhibitor): 100 nM
CO[C@H]1O[C@H](CO)[C@@H](O)[C@H](O)[C@@H]1O — IC50 (Concanavalin-A (Canavalia ensiformis, UniProt P02866)): 144000 ± 7000 nM
CCCC[C@@H]1NC(=O)[C@H]([C@@H](C)O)NC(=O)[C@H](CCCNC(=N)N)NC(=O)CNC(=O)CC[C@@H](C(=O)N[C@@H](C)C(=O)N[C@@H](CCCNC(=N)N)C(=O)N[C@@H](CCCCN)C(=O)N[C@@H](CO)C(=O)N[C@H](C(=O)NCC(=O)NCC(N)=O)[C@@H](C)O)NC(=O)[C@H](CCC(N)=O)NC1=O — IC50 (SETD7 (Homo sapiens, UniProt Q8WTS6); H3K4 peptide methylation, inhibitor, MALDI-TIMS-TOF MS; 30 min, 37 °C, with: H3K4 peptide 10 µM, SAM 30 µM): 1440 nM
N=C(N)NC(=O)c1ccc(C(=O)NCCCC[C@H](NC(=O)CNC(=O)CCC(=O)NN=Cc2cc(C=NNC(=O)CCC(=O)NCC(=O)N[C@@H](CCCCNC(=O)c3ccc(C(=O)NC(=N)N)[nH]3)C(=O)N[C@@H](Cc3c[nH]c4ccccc34)C(=O)N[C@@H](CCCCN)C(N)=O)cc(C=NNC(=O)CCC(=O)NCC(=O)N[C@@H](CCCCNC(=O)c3ccc(C(=O)NC(=N)N)[nH]3)C(=O)N[C@@H](Cc3c[nH]c4ccccc34)C(=O)N[C@@H](CCCCN)C(N)=O)c2)C(=O)N[C@@H](Cc2c[nH]c3ccccc23)C(=O)N[C@@H](CCCCN)C(N)=O)[nH]1 — IC50 (Tryptase beta-2 (TPSB2, Homo sapiens, UniProt P20231); enzyme activity, high-affinity phase, inhibitor; with: Tos-Gly-Pro-Arg-AMC substrate): 114 ± 19.3 nM
CN[C@H](CC(C)C)C(=O)N[C@H]1C(=O)N[C@@H](CC(N)=O)C(=O)N[C@H]2C(=O)N[C@H]3C(=O)N[C@H](C(=O)N[C@H](C(=O)O)c4cc(O)cc(O)c4-c4cc3ccc4O)[C@H](O)c3ccc(c(Cl)c3)Oc3cc2cc(c3O[C@@H]2O[C@H](CO)[C@@H](O)[C@H](O)[C@H]2O[C@H]2C[C@](C)(NCc3ccc(C(=O)OCCCCCCN(Cc4ccccn4)Cc4ccccn4)cc3)[C@H](O)[C@H](C)O2)Oc2ccc(cc2Cl)[C@H]1O — IC50 (VIM-1 (Pseudomonas aeruginosa, UniProt A0A0F7KYQ8); enzyme activity, inhibitor, absorbance): 4000 nM
Cc1cccc(-c2nc(Nc3ccncn3)c3c(C)csc3n2)n1 — IC50 (Cytochrome P450 3A4 (CYP3A4, Homo sapiens, UniProt P08684); enzyme activity, inhibitor; with: VR substrate): 32000 nM
